Experimental data pooled from the literature.
Parts stem from different laboratories: compare values within a part only.

Study 1 — method: RNAcompete; form: RNA; sample: in vitro; concentration: 20 nM; setting: 7-mer, probes averaged, single round; baseline: mean of 7-mers; direction: higher = stronger binding
Target: PABPC1L2, full length, GST fusion (mouse, UniProt A0ABA7IW68)
Residues (chain): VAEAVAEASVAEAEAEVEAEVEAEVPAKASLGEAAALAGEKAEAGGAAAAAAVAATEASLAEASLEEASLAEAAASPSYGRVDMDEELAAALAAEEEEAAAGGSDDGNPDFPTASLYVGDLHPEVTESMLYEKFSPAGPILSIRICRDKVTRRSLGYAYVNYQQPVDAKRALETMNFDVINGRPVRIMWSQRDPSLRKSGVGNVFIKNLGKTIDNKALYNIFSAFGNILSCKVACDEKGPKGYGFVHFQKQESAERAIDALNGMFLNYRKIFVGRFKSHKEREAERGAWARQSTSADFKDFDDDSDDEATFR
Strand | 7-mer Z-score
CUGCGGC | -0.161
ACGGAAG | 0.126
GGCCGAU | -0.0446
ACGAGAG | 0.187
UGUUUGG | -0.449
UCACCGG | -0.228
ACACCAC | -0.0518
UAUAGGG | -0.0627
UUCGGGU | -0.151
UAUAAGC | -0.144
UUGUGGC | -0.184
CGGGAUU | -0.0156
GUAGGUA | -0.0283
CGAUGUA | -0.101
AAUUUUU | -0.012
CGUCCAG | -0.195
UAAUCGA | 0.0515

Study 2 — method: protein-binding microarray; form: double-stranded DNA, one strand shown; sample: in vitro; concentration: 250 nM; setting: 60-bp whole probe; with: salmon DNA 0.4 mg/ml; baseline: random background probes; direction: higher = stronger binding; constant ends, left off below: GCCTAGCAC … GTCTTGATTCGCTTGACGCTGCTG
Target: Interferon regulatory factor 5, full length, phosphomimetic (IRF5, Homo sapiens, UniProt Q13568-2, residues 1-514, K96S/S451D/S453D/S456D/S462D)
Strand | log fluorescence
TTAGGTCTCCTTCTCCGTTAGTGCTAG | -0.0113 z-score
CACGATTTCGGGACTGGAGACGTGCTA | 1.49 z-score
TCAATTTTTTTTATCAAACTGTGCTAG | 0.963 z-score
TTAGGACTGGGGTAGCGGTTAGTGCTA | -0.443 z-score
TGTTATTAAAATTTCATGAAGTGCTAG | 1.12 z-score
TTAGGACTGCTACTGCCTTAGTGCTAG | -0.527 z-score
TTAGGTTTCGACTATCGTTTAGTGCTA | 8.45 z-score
TCATTTTTTCATATATAACTGTGCTAG | 2.02 z-score
GACGGTATCGGATTCGGGACGTGCTAG | 1.68 z-score
GACGGTGTCGGTTCCGGGACGTGCTAG | 0.152 z-score
TTAGGTTTCCTAATCCTTTAGTGCTAG | 0.52 z-score
TCAGTTCCCTATATAAGACTGTGCTAG | 0.254 z-score
TTAGGTATCAGTCTCGATTAGTGCTAG | 2.3 z-score
CTAATTTTGAGACTCATGGGGTGCTAG | 0.129 z-score
TTAGGACCGGGGTATCGGTTAGTGCTA | 2.6 z-score
TTAGGTATCAACTATCGGTTAGTGCTA | 6.78 z-score
GACGGTTTCCTTCTTCTGACGTGCTAG | 0.815 z-score
GACAGTTTCGACACTGGGGACGTGCTA | 7.66 z-score
GACGAGATCAGTTTCGAGACGTGCTAG | 5.48 z-score

Study 3 — method: RNA Bind-n-Seq; form: RNA; sample: in vitro; concentration: 365 nM; baseline: no-protein control; direction: higher = stronger binding
Target: RNA binding protein fox-1 homolog 2, RRM domain, GST-SBP tag (RBFOX2, Homo sapiens, UniProt O43251-10, residues 100-194)
Setting: natural RNA segment, single round, ends assumed
Target sequence (chain): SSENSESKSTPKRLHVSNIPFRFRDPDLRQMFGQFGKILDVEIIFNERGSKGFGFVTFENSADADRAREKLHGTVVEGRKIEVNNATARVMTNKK
Strand | RBNS enrichment (R)
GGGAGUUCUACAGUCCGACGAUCAUCUUUAGUCCCAGCAUAGGCAGGUGAAUCUCGAGUUUGAAGCUAGCCUGGUCUAAAAAGGAAGUUCCAAGACUGCCAGGGCCACACAGAGGAAAAAAAAAACCCUCUAGUGGAAUUCUCGGGUGCCAA | 0.319
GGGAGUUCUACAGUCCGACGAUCGAGUCCCAAGAGUCCAGGUUAGUUGACUCUGUUGGUCUUCCUGUGGAGUUCCUAUCCCCUUUGAGGCUUACAAUCUUUCCUCCUUUUCUUCCAUAAGAGUUCCCAAGCUCUGGAAUUCUCGGGUGCCAA | 0.587
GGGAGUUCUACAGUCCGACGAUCGCAGGCUUUAGAGGGAGAACCCAAAUUUUCAAUUAUGUUGGCUUUUUAUAAAGCUUGAGUUAUGUAAGAUUUAAAUAAAAGUUUGCUACCAAGAUGAUUGCCUUAUUGAAUGGAAUUCUCGGGUGCCAA | 3.3
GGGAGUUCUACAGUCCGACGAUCUGAGGGGCCUCAGGGCUUGUGGGGGGUAGGCUGAGACCCCACCACCAAAGGUUAAGUGAGGUCCCCUUGAUUGAGGACUUCACCCCUUGAUUAAAGCAACUUCUGCUUCAUGGAAUUCUCGGGUGCCAA | 0.323
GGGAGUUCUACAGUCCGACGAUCUAAAGUCCUCACCCCUGCAUUUGAGAAAUAUUUUAUUAUUUUUAUUUUAAGGCAAAACAGUGUUUACUGUGAUGGGCAGAACAGCCUUUUGUAUCUAGGAGUCCAUUUGAUGGAAUUCUCGGGUGCCAA | 0.337
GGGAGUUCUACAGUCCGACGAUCCAUCUCUCAGAGAUGUGAAGCCAGAUCCUCAUGGCAGCGAGGCCCUCUGCAAGAAGCUCAAGGAAGCUCAGGGAAAAUGGACGUAUUCAGAGAGUGUUUGUAGUUCAUGGUGGAAUUCUCGGGUGCCAA | 0.599
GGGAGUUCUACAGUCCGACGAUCUUUCUGAACACCAUAGGUAGAAUGUAAAGCUUGUCUGAUCGUUCAAAGCAUGAAAUGGAUACUUAUAUGGAAAUUCUGCUCAGAUAGAAUGACAGUCCGUCAAAACAGAUUGGAAUUCUCGGGUGCCAA | 7.67
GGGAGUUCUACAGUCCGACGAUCAGAAAUAUAUUUUGAUCUAUUUUCCUAUGGAGUUGUUUCUAUUAUGACCAUUUAAUUUUGUUUUUAUUUAAUAGUAGUAUUUCCUUCCCUUUUAUCUAAUUUUUUAUAUGUGGAAUUCUCGGGUGCCAA | 1.21

Study 4 — method: protein binding microarray; form: double-stranded DNA, one strand shown; sample: in vitro; concentration: not given; baseline: not given; direction: higher = stronger binding
Target: Histone acetyltransferase KAT6A, winged helix 1, GST fusion (KAT6A, Homo sapiens, UniProt Q92794, residues 1-85)
Setting: 8-mer, flanks averaged, mean of 2 arrays, mostly near background
Construct (chain): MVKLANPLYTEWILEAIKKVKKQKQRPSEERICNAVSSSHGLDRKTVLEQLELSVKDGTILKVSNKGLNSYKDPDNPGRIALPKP
Strand | E-score
CTTCGTCA | -0.0736
CCTACCAG | -0.0532
CATAAAGA | -0.13
CGCTACCA | 0.239
CTACCAAA | -0.0398
GAGAACCC | -0.136
CGCAGGCA | 0.173
CATGCAAA | -0.065
CCGCCGGC | 0.487
ATGTACTC | 0.0379
CCCATCTA | 0.0105
GCCAGCAC | -0.0408
GGTTCTCA | -0.00265
TCCGGGAA | 0.0441
AGGATGTG | -0.219
GCGTGAGC | 0.327
GACAACAC | -0.173
ATTACCGC | 0.319
ATACGGGG | 0.223
CAATATTA | -0.0178
ACATATGA | -0.14
GGAATGCC | 0.139
AACCAAGG | -0.127

Study 5 — method: RNA Bind-n-Seq; form: RNA; sample: in vitro; concentration: 1 µM; setting: whole 134-nt RNA, ends assumed; with: 150 mM KCl; baseline: input library; direction: higher = stronger binding
Target: Ras GTPase-activating protein-binding protein 1, RRM domain (G3BP1, Homo sapiens, UniProt Q13283)
UniProt Q13283, sequence (whole entry, looked up): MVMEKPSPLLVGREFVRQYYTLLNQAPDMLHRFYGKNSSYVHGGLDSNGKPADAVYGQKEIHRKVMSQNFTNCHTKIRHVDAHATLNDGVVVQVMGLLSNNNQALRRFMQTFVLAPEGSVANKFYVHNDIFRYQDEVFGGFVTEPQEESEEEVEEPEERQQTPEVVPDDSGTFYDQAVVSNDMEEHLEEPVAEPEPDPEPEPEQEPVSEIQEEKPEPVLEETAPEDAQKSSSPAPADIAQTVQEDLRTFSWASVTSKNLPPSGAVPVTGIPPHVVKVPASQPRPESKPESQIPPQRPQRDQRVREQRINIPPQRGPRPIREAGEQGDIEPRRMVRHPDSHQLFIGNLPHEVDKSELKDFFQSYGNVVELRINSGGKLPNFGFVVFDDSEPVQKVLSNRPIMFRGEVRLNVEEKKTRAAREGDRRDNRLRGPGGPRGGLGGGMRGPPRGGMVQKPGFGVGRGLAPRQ
Strand | log2 enrichment
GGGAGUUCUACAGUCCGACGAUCUUGUUUAUUCUGUGUCUUUUGCCUCCUUUCCUACAGAUGUCCGGCAGGAUAAUGCUGCUGGCAGAGCUGGCUCCAGUAGCCUUACACAGGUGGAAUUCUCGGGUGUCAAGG | -0.0823
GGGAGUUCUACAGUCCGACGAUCUAGUGAUGGUCCUAAAUAGCAUGAGUGUCAGCUGGAGCGCCCGGAUCCAGAUUUUCUUAACCUUUUGCAAGCUCACAGCAAUUCUGAUAAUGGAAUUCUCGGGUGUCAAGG | -0.129
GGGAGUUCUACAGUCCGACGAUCCUGUGCUACACAUCGUAUGUACCGAAUCAAAUUUUUUUAAAUUUUUUUAAACCCCCCCAAAAAAGUAUUAUGUUACGCCGUUCGGAUCUGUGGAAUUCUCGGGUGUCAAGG | -1.02
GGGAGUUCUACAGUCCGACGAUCGUCCUGUGCUACACAUCGUAUGUACCGAAUCGGGAAAAAGGGAAAAAGGGUUUUUGGGAAAGUAUUAUGUUACGCCGUUCGGAUCUGCACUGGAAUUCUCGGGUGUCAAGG | 0.0945
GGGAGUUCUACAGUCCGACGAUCCAAGUCCUGUGCUACACAUCGUAUGUACCGAAUCGGAAAGGGGAAAGGGGAAAGGAAAGUAUUAUGUUACGCCGUUCGGAUCUGCACUUCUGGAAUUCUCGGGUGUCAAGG | -0.0393
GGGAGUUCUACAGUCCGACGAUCUGGGAGGUGGAUUUUGUUUAUUUUUUUAGCUCAUUUCCAGGGGUGGGAAUUUUUUUUUAAUCUGUGUCAUGAAUAAAGUUGUUUUUGAAAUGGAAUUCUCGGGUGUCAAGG | 2.17
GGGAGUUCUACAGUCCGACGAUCCACAGACAACACGCACCCACACAGACAAAGAGGGAAGGGGUUGGGAUGGGGACAGGGUGCACAGCAGGGCGGGGUAGGACCCCAGCCCCUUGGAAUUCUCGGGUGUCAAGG | -0.162
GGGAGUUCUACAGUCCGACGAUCACCAUGCAGGUGGGCAUCUUUGGGAAGUGGGGCAAGGGGGGGAUAGGGAGGUGGGUAACACUUUGGGAACAGGUGGUCCCAGGUCGUUUCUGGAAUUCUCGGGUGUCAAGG | 0.621
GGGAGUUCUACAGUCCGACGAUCCCUCAAGUCCUGUGCUACACAUCGUAUGUACCGAAUCGGGGCGGCGGGGCGGAAAGUAUUAUGUUACGCCGUUCGGAUCUGCACUUCCAGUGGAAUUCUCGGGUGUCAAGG | -0.302

Some of these lines once more (study 3):
Strand | RBNS enrichment (R)
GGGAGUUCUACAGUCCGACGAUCUGAGGGGCCUCAGGGCUUGUGGGGGGUAGGCUGAGACCCCACCACCAAAGGUUAAGUGAGGUCCCCUUGAUUGAGGACUUCACCCCUUGAUUAAAGCAACUUCUGCUUCAUGGAAUUCUCGGGUGCCAA | 0.323
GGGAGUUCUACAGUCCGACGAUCGCAGGCUUUAGAGGGAGAACCCAAAUUUUCAAUUAUGUUGGCUUUUUAUAAAGCUUGAGUUAUGUAAGAUUUAAAUAAAAGUUUGCUACCAAGAUGAUUGCCUUAUUGAAUGGAAUUCUCGGGUGCCAA | 3.3
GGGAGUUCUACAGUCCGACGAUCAGAAAUAUAUUUUGAUCUAUUUUCCUAUGGAGUUGUUUCUAUUAUGACCAUUUAAUUUUGUUUUUAUUUAAUAGUAGUAUUUCCUUCCCUUUUAUCUAAUUUUUUAUAUGUGGAAUUCUCGGGUGCCAA | 1.21
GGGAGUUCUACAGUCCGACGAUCGAGUCCCAAGAGUCCAGGUUAGUUGACUCUGUUGGUCUUCCUGUGGAGUUCCUAUCCCCUUUGAGGCUUACAAUCUUUCCUCCUUUUCUUCCAUAAGAGUUCCCAAGCUCUGGAAUUCUCGGGUGCCAA | 0.587
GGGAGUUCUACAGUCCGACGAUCCAUCUCUCAGAGAUGUGAAGCCAGAUCCUCAUGGCAGCGAGGCCCUCUGCAAGAAGCUCAAGGAAGCUCAGGGAAAAUGGACGUAUUCAGAGAGUGUUUGUAGUUCAUGGUGGAAUUCUCGGGUGCCAA | 0.599
